Measured values pooled from the literature.
Each numbered part is a random draw from the data of one study; scales do not carry over between parts.
UniProt P42681, sequence (whole entry, looked up): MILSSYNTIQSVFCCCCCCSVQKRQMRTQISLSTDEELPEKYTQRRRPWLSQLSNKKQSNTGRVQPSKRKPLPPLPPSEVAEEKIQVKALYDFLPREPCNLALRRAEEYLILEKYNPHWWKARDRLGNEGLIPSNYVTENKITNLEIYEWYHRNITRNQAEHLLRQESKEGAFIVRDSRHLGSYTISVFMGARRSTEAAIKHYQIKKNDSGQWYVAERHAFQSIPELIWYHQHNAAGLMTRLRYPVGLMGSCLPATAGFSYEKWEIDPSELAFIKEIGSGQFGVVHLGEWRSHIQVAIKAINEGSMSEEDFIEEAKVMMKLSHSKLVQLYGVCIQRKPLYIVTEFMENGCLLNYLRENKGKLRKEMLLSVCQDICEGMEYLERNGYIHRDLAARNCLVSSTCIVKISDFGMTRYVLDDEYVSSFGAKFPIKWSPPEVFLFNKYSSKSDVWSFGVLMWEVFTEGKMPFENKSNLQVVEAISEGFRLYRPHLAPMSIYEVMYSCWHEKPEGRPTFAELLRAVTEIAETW
UniProt O00506, sequence (whole entry, looked up): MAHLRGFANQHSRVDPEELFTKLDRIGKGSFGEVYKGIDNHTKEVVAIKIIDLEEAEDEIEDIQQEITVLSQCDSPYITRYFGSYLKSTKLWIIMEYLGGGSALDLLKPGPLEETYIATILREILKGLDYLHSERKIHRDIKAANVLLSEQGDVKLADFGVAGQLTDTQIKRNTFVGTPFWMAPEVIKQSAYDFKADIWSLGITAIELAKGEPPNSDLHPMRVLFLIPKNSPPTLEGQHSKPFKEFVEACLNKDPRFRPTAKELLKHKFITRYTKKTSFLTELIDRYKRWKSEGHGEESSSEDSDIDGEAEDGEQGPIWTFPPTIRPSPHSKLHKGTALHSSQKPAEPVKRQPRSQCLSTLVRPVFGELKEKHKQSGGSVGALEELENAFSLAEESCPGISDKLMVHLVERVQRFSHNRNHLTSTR
UniProt P36894, sequence (whole entry, looked up): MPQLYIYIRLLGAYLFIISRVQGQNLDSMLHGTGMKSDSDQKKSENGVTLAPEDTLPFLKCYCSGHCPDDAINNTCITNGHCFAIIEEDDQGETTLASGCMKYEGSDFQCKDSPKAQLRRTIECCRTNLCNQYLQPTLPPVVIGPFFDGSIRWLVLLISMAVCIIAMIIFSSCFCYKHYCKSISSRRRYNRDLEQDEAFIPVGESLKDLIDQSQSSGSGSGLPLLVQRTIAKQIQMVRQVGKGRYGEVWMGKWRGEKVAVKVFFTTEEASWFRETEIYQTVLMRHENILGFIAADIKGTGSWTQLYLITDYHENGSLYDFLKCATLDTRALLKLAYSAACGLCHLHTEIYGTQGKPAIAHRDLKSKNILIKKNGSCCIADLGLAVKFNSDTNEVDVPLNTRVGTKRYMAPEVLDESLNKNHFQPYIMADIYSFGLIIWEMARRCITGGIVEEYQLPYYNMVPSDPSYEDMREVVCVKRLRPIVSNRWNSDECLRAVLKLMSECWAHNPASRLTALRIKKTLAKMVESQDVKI
UniProt P24723, sequence (whole entry, looked up): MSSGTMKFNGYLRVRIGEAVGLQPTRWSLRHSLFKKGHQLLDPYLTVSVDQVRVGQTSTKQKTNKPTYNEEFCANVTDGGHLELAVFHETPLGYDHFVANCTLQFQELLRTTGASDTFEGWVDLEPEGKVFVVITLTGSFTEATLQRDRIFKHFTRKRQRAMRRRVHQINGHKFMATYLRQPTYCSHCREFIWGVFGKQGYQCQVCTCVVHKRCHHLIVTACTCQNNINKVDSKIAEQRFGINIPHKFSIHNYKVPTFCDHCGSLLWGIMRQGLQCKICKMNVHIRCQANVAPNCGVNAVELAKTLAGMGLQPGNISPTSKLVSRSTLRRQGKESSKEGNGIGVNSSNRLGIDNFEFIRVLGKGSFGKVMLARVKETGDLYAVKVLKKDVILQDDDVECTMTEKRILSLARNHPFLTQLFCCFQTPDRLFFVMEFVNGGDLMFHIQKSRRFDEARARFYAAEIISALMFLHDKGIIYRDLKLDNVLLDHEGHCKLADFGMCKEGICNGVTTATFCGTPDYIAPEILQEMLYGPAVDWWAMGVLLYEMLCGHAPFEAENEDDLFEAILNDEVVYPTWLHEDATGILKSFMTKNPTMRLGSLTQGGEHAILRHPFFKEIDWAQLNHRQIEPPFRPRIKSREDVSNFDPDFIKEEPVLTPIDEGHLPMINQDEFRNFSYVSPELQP
UniProt P07949, sequence (whole entry, looked up): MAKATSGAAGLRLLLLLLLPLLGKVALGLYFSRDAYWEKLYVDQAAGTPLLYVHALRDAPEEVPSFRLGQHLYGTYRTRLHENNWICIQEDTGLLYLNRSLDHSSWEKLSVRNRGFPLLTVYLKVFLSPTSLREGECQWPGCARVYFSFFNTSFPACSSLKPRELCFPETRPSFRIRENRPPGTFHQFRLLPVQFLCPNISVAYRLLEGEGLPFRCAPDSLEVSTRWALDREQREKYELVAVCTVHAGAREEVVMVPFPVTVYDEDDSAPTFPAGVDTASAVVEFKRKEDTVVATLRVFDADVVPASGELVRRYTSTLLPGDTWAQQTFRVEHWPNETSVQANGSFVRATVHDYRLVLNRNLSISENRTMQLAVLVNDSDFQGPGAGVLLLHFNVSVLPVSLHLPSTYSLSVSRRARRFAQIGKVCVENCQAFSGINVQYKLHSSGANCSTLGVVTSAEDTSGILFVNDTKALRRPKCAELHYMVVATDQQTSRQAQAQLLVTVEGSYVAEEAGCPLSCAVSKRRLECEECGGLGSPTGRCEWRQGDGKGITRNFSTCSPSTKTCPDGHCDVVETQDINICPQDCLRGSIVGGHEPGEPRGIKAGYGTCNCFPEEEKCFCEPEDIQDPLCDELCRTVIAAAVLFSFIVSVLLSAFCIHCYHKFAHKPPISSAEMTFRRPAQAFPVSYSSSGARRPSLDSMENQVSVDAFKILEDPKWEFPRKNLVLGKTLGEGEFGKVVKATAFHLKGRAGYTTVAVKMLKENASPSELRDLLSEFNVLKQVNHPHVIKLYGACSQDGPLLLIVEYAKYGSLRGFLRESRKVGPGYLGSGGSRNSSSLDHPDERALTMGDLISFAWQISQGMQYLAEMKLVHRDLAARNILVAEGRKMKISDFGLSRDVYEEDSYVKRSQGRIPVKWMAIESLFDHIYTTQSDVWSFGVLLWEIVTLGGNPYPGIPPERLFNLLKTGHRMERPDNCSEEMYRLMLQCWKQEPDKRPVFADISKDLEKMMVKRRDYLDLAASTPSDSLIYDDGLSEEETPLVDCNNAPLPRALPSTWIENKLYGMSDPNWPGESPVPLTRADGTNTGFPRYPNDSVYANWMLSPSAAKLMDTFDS
UniProt P68400, sequence (whole entry, looked up): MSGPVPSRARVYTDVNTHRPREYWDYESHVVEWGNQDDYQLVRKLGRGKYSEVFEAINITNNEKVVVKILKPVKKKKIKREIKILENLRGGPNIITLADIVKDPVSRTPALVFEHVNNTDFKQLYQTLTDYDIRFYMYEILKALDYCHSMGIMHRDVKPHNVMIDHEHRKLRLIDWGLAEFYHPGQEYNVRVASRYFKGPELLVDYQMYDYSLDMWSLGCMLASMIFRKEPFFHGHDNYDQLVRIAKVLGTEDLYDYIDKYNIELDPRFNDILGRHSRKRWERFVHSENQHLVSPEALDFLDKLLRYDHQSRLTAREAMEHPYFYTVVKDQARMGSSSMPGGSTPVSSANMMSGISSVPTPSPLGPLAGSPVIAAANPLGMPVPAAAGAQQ
UniProt P09769, sequence (whole entry, looked up): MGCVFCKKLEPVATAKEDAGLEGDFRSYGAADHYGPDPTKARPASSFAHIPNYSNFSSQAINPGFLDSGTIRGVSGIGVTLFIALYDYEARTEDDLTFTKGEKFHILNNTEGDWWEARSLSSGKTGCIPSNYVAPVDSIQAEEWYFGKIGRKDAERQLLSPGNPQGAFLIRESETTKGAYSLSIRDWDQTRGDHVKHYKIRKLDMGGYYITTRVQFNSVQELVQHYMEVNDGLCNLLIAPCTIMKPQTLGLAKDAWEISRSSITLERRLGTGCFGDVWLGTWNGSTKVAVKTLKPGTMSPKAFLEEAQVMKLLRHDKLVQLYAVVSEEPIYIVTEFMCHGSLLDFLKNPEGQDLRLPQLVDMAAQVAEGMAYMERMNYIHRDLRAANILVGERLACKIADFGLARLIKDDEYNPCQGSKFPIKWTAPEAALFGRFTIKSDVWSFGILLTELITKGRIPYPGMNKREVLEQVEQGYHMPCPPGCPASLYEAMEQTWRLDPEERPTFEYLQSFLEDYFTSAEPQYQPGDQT

Block 1 — SMILES: O=C(Nc1ccccc1)Nc1cccc(Oc2ccc3nccn3n2)c1; concentration: 1 µM
Casein kinase II subunit alpha (CSNK2A1, Homo sapiens, UniProt P68400); competitive binding panel; baseline: vehicle — remaining binding: 100%.
Serine/threonine-protein kinase D2 (PRKD2, Homo sapiens, UniProt Q9BZL6); competitive binding panel; baseline: vehicle — remaining binding: 93%.
For Serine/threonine-protein kinase Nek1 (NEK1, Homo sapiens, UniProt Q96PY6); competitive binding panel; baseline: vehicle: remaining binding read 100%.
It gave 100% for remaining binding (Serine/threonine-protein kinase ICK (CILK1, Homo sapiens, UniProt Q9UPZ9); competitive binding scan).
For Proto-oncogene tyrosine-protein kinase receptor Ret (RET, Homo sapiens, UniProt P07949); competitive binding panel; baseline: vehicle: remaining binding read 92%.
For Interleukin-1 receptor-associated kinase 4 (IRAK4, Homo sapiens, UniProt Q9NWZ3); competitive binding panel; baseline: vehicle: remaining binding read 100%.
The remaining binding was 100% (Mitogen-activated protein kinase kinase kinase kinase 4 (MAP4K4, Homo sapiens, UniProt O95819); competitive binding panel; baseline: vehicle).
Dual specificity protein kinase CLK2 (CLK2, Homo sapiens, UniProt P49760); competitive binding panel; baseline: vehicle — remaining binding: 100%.
Bone morphogenetic protein receptor type-1A (BMPR1A, Homo sapiens, UniProt P36894); competitive binding panel; baseline: vehicle — remaining binding: 100%.
It gave 100% for remaining binding (Serine/threonine-protein kinase PLK2 (PLK2, Homo sapiens, UniProt Q9NYY3); competitive binding panel; baseline: vehicle).
For cGMP-dependent protein kinase 1 (PRKG1, Homo sapiens, UniProt Q13976); competitive binding panel; baseline: vehicle: remaining binding read 96%.
The remaining binding was 95% (Cyclin-dependent kinase 11A (CDK11A, Homo sapiens, UniProt Q9UQ88); competitive binding panel, measured: CDC2L2; baseline: vehicle).
For Tyrosine-protein kinase TXK (TXK, Homo sapiens, UniProt P42681); competitive binding panel; baseline: vehicle: remaining binding read 100%.
Receptor-interacting serine/threonine-protein kinase 4 (RIPK4, Homo sapiens, UniProt P57078); competitive binding panel; baseline: vehicle — remaining binding: 100%.
The remaining binding was 100% (Serine/threonine-protein kinase 25 (STK25, Homo sapiens, UniProt O00506); competitive binding panel, measured: YSK1; baseline: vehicle).
The remaining binding was 82% (Tyrosine-protein kinase Fgr (FGR, Homo sapiens, UniProt P09769); competitive binding panel; baseline: vehicle).
Protein kinase C eta type (PRKCH, Homo sapiens, UniProt P24723); competitive binding panel; baseline: vehicle — remaining binding: 100%.

Block 2 — effect on: RNA clamping; method: fluorescence polarization; concentration: concentration not given; with: FAM-labelled poly r(AG)8 RNA; reading: higher = more clamping
Target: Eukaryotic initiation factor 4A-I (EIF4A1, Homo sapiens, UniProt P60842)
UniProt P60842, sequence (whole entry, looked up): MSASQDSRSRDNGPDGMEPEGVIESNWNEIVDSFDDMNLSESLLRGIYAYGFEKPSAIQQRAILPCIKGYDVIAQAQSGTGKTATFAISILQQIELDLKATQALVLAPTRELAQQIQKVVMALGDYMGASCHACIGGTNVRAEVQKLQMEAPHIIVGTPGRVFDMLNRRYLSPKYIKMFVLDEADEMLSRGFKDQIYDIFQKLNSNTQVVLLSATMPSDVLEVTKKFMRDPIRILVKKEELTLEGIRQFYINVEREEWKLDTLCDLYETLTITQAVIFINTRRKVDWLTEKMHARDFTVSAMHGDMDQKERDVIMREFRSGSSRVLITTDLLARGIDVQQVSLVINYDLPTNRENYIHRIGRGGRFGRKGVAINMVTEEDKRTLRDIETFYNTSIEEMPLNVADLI
Under “fluorescence polarization change”, `COc1ccc([C@@]23Oc4cc(OC)cc(OC)c4[C@@](O)(C2=O)[C@H](c2ccccc2)[C@H]3c2ccccc2)cc1` is recorded as 11.2 mP.
Under “fluorescence polarization change”, `COCCN[C@@]12C(=O)[C@H](C(=O)N(C)C)[C@@H](c3ccccc3)[C@]1(c1ccc(OC)cc1)Oc1cc(OC)cc(OC)c12` is recorded as -12.9 mP.
For `COC(=O)[C@@H]1[C@@H](c2ccccc2)[C@]2(c3ccc(OC)cc3)Oc3cc(OC)cc(OC)c3[C@@]23OC(c2cccc(OC)c2)=N[C@@]13O`, “fluorescence polarization change” read -0.1 mP.
Under “fluorescence polarization change”, `COc1ccc([C@]23[C@H](c4ccccc4)C[C@@H](O)[C@@]2(O)c2c(OC)cccc2N3C)cc1` is recorded as 2.3 mP.
Under “fluorescence polarization change”, `COc1ccc([C@@]23Oc4cc(OC)cc(OC)c4[C@]2(NCc2ccccc2)C(=O)C[C@H]3c2ccccc2)cc1` is recorded as 12.1 mP.
Under “fluorescence polarization change”, `COC(=O)[C@@H]1[C@@H](c2ccccc2)[C@]2(c3ccc(OC)cc3)Oc3cc(OC)cc(OC)c3[C@@]23NC(C(C)C)=N[C@@]13O` is recorded as 72.9 mP.
`COc1cc(OC)c2c(c1)O[C@@]1(c3ccc(C#N)cc3)[C@H](c3ccccc3)[C@@H](CN(C)C)[C@@H](O)[C@@]21O`: “fluorescence polarization change” 88.5 mP.
`CCCN[C@@]12C(=O)[C@H](C(=O)N(C)C)[C@@H](c3ccccc3)[C@]1(c1ccc(OC)cc1)Oc1cc(OC)cc(OC)c12` — result for “fluorescence polarization change”: -8.9 mP.
`CCOC(=O)[C@H]1[C@@H](O)[C@@]2(O)c3c(OC)cc(OC)cc3O[C@@]2(c2ccc(OC)cc2)[C@@H]1c1ccc(Br)cc1`: “fluorescence polarization change” 6 mP.
`CCCc1ccc(C(=O)[C@H]2[C@@H](O)[C@@]3(O)c4c(OC)cc(OC)cc4O[C@@]3(c3ccc(OC)cc3)[C@@H]2c2ccccc2)o1` — result for “fluorescence polarization change”: 3.3 mP.
`COC(=O)[C@H]1C(=O)[C@@]2(NC34C[C@H]5C[C@@H](C3)C[C@@H](C4)C5)c3c(OC)cc(OC)cc3O[C@@]2(c2ccc(OC)cc2)[C@@H]1c1ccccc1`: “fluorescence polarization change” 0.6 mP.

Block 3 — effect on: enzyme activity; action: inhibitor; concentration: 0.5 µM; baseline: control
Target: Serine/threonine-protein kinase 26 (STK26, Homo sapiens, UniProt Q9P289)
UniProt Q9P289, sequence (whole entry, looked up): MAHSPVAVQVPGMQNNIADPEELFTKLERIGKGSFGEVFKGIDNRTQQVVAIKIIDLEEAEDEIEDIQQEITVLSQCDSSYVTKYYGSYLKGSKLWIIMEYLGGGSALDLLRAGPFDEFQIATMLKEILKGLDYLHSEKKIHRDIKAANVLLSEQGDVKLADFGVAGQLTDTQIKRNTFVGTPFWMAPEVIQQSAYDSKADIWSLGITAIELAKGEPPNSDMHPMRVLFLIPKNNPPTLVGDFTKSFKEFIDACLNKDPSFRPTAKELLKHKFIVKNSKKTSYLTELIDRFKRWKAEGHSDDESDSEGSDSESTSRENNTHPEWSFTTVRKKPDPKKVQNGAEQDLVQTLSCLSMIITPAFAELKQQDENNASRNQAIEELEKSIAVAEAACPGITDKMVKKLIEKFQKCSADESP
With `O=C1C(Cl)=C(N2C(=O)CCC2=O)C(=O)c2ccccc21` the remaining activity was 98.3%.
For `CN([C@@H](Cc1ccc(OS(=O)(=O)c2cccc3cnccc23)cc1)C(=O)N1CCN(c2ccccc2)CC1)S(=O)(=O)c1cccc2cnccc12`, the remaining activity was 109%.
`C[C@@H]1CCN(C(=O)CC#N)C[C@@H]1N(C)c1ncnc2[nH]ccc12` has a remaining activity of 105%.
`O=C(NC(NC(=S)Nc1ccc(F)c([N+](=O)[O-])c1)C(Cl)(Cl)Cl)C(c1ccccc1)c1ccccc1` (stereo not drawn) gave a remaining activity of 89.3%.
`CCN(CC)C(=O)c1ccc(Nc2nc(OCC3CCCCC3)c3[nH]cnc3n2)cc1` gave a remaining activity of 84.9%.
`CCN(CC)CCNC(=O)c1c(C)[nH]c(/C=C2\C(=O)Nc3ccc(Cl)cc32)c1C` has a remaining activity of 73.2%.
The remaining activity of `Ic1cccc(CSc2nnc(-c3ccncc3)o2)c1` is reported as 103%.
The remaining activity of `N#Cc1c(NC(=O)c2cccc3ccccc23)sc2c1CCCC2` is reported as 102%.
`Cc1cn(-c2cc(NC(=O)c3ccc(C)c(Nc4nccc(-c5cccnc5)n4)c3)cc(C(F)(F)F)c2)cn1` has a remaining activity of 111%.
For `Cn1nc2c3c(cccc31)C(=O)c1ccccc1-2`, the remaining activity was 108%.
With `O=C1c2ccccc2-c2n[nH]c3cccc1c23` the remaining activity was 83.4%.
For `CCN(CC)CCNC(=O)c1c(C)[nH]c(/C=C2\C(=O)Nc3ccc(F)cc32)c1C`, the remaining activity was 110%.
The remaining activity of `N#C/C(=C\c1ccc(O)c(O)c1)C(=O)NCc1ccccc1` is reported as 103%.
`Cc1nc2cc3nc(-c4cccs4)cnc3cc2n1C` gave a remaining activity of 99.3%.
With `c1ccc(-c2[nH]ncc2-c2ccnc3ccccc23)nc1` the remaining activity was 83.4%.
`CCOc1nc(NC(=O)Cc2cc(OC)ccc2OC)cc(N)c1C#N` gave a remaining activity of 104%.
For `O=c1cc(-c2cccc3c2Sc2ccccc2S3)oc(N2CCOCC2)c1`, the remaining activity was 90.4%.
`c1ccc(-c2cnc(Nc3ccc(OCCN4CCCC4)cc3)s2)cc1` gave a remaining activity of 101%.
With `COc1cc2ncnc(Nc3cccc(Cl)c3)c2cc1OC` the remaining activity was 108%.
`Nc1cccc(-c2cc3c(Oc4cccc(O)c4)ncnc3[nH]2)c1` has a remaining activity of 83.8%.
With `COc1cc2c(cc1OC)-c1[nH]nc(Nc3cccc(F)c3)c1C2` the remaining activity was 97%.
With `O=C(Nc1cccc(Nc2nccc(Nc3cccc(C(F)(F)F)c3)n2)c1)C1CC1` the remaining activity was 84.4%.
With `CN(C)C[C@H]1CCn2c(c(C3=C(c4cn(C)c5ccccc45)C(=O)NC3=O)c3ccccc32)C1` the remaining activity was 78%.
The remaining activity of `Cc1cc2ncc(-c3ccccc3)nc2cc1C` is reported as 97.6%.
The remaining activity of `COc1cc2ncnc(Nc3ccc(O)c(Br)c3)c2cc1OC` is reported as 90.2%.

Single results of other studies
`COc1cccc(NC(=O)c2nc3scc(CN(C)Cc4ccccc4)c3c(=O)[nH]2)c1` gave a Ki of 263 nM (Sigma non-opioid intracellular receptor 1 (SIGMAR1, Homo sapiens, UniProt Q99720); binding, radioligand binding).

A few entries again (block 2):
`CCOC(=O)[C@H]1[C@@H](O)[C@@]2(O)c3c(OC)cc(OC)cc3O[C@@]2(c2ccc(OC)cc2)[C@@H]1c1ccc(Br)cc1`: “fluorescence polarization change” 6 mP.
Under “fluorescence polarization change”, `COc1ccc([C@@]23Oc4cc(OC)cc(OC)c4[C@]2(NCc2ccccc2)C(=O)C[C@H]3c2ccccc2)cc1` is recorded as 12.1 mP.
For `COC(=O)[C@@H]1[C@@H](c2ccccc2)[C@]2(c3ccc(OC)cc3)Oc3cc(OC)cc(OC)c3[C@@]23OC(c2cccc(OC)c2)=N[C@@]13O`, “fluorescence polarization change” read -0.1 mP.
`COc1cc(OC)c2c(c1)O[C@@]1(c3ccc(C#N)cc3)[C@H](c3ccccc3)[C@@H](CN(C)C)[C@@H](O)[C@@]21O`: “fluorescence polarization change” 88.5 mP.
